Results from different studies.
“And” joins repeats or separate records; there may be more than shown. Numbers after ± are the reported error. In brackets after ≈: the same amount, converted by molar mass.

| Compound | organism | assay | test system | setting | how to read | endpoint | result |
| --- | --- | --- | --- | --- | --- | --- | --- |
| CCOC(=O)C1(CC=C(C)C)Oc2cc(F)ccc2N(CC=C(C)C)C1=O (stereo not shown) | Echinochloa crus-galli | fresh weight, greenhouse postemergence | – | postemergence, 150 g ai/ha, 21 days | – | inhibition | 53.78 ± 0.4% |
| [O-][N+]1=C(Cc2ccccc2)C2=NCCCN2c2ccccc21 | Parabacteroides distasonis and Bacteroides spp. | bacterial growth | – | – | – | MIC50 | 1 µg/mL (≈ 3.43 µM) |
| C[C@H](NC(=O)Cc1cc(F)cc(F)c1)C(=O)N[C@@H]1C(=O)N(C)c2ccccc2-c2ccccc21 | dengue virus type 2 | viral replication, Renilla luciferase reporter virus | Huh-7.5.1 | 48 h | – | EC50 | 20 nM |
| [O-][N+]1=C(c2ccc(Cl)cc2)C2=NCCCN2c2ccccc21 | Prevotella spp. | bacterial growth | – | – | – | MIC50 | 0.5 µg/mL (≈ 1.6 µM) |
| CC[C@H](C)[C@H](NC(=O)[C@H](C)NC(=O)CNC(=O)[C@H](C)NC(=O)[C@H](CCCCN)NC(=O)[C@H](CO)NC(=O)[C@H](C)NC(=O)[C@H](CCSC)NC(=O)CN)C(=O)N[C@@H](C)C(=O)NCC(=O)N[C@@H](CCCCN)C(=O)N[C@H](C(=O)N[C@@H](C)C(=O)N[C@@H](CCCCN)C(=O)N[C@H](C(=O)N[C@@H](C)C(=O)N[C@@H](CC(C)C)C(=O)N[C@@H](CCCCN)C(=O)N[C@@H](C)C(=O)N[C@@H](CC(C)C)C(N)=O)C(C)C)[C@@H](C)CC | Escherichia coli | – | 0370 wild type | 24 h, 30 °C, at EC90, mean of ratios, together with: nalidixic acid | – | combination index | 1.26 |
| CCOC(=O)C1(Cc2ccccc2)Oc2cc(C)ccc2N(Cc2ccccc2)C1=O (stereo not shown) | Eclipta prostrata | fresh weight, greenhouse postemergence | – | postemergence, 150 g ai/ha, 21 days | – | inhibition | 52.9 ± 2.58% |
| COc1cc(C(SC(C)C)SC(C)C)ccc1OCCNS(=O)(=O)c1cccc(Br)c1 | tobacco mosaic virus | curative activity | in vivo plant | – | – | EC50 | > 2500 µg/mL |
| CCOC(=O)C1(Cc2ccc(F)cc2)Oc2cc(F)ccc2N(Cc2ccc(F)cc2)C1=O (stereo not shown) | Echinochloa crus-galli | fresh weight, greenhouse postemergence | – | postemergence, 150 g ai/ha, 21 days | – | inhibition | 51 ± 2.09% |
| CSCC[C@H](N)C(=O)N[C@@H](CC(=O)O)C(=O)N[C@@H](CC(C)C)C(=O)N1CCC[C@H]1C(=O)N[C@@H](Cc1ccccc1)C(=O)N[C@H](CCC(=O)O)C(=O)N[C@@H](Cc1ccccc1)C(N)=O | Bacillus cereus | – | ATCC 14579, CD-1 mouse septicemia model | intravenous, 5 mg/kg twice daily, 6 d | – | survival rate | ≤ 85% |
| Cc1ccc(N2CC3CC(C2)N3C)cc1C(=O)NC1(c2ccc3c4c(cccc24)C(=O)N3C)CC1 | Human coronavirus NL63 | viral replication | – | 10 nM | – | inhibition | 18.7% |
| [O-][N+]1=C(c2ccsc2)C2=NCCCN2c2ccccc21 | Parabacteroides distasonis and Bacteroides spp. | bacterial growth | – | – | – | MIC90 | 0.5 µg/mL (≈ 1.76 µM) |
| CN(C(=O)c1ccn2ncc(-c3ccc(C(N)=O)cc3)c2c1)c1ccc(C#N)cn1 | Cryptosporidium parvum | – | UGA1 Nluc, IFN-gamma knockout C57BL/6 mice, faeces | oral, 10 mg/kg daily, 360 h post infection, treatment days 11-17 | higher means more parasites | faecal Nluc luminescence | 205 a.u. and 249 a.u. and 195 a.u. and 275 a.u. |
| CC[C@H](C)[C@H](NC(=O)[C@H](CCCCN)NC(=O)[C@H](CCCCN)NC(=O)[C@H](Cc1ccccc1)NC(=O)[C@H](Cc1ccccc1)NC(=O)[C@H](CCCCN)NC(=O)[C@H](CCCCN)NC(=O)[C@H](Cc1ccccc1)NC(=O)[C@H](CCCNC(=N)N)NC(=O)[C@@H](N)CCCCN)C(=O)N[C@@H](CCCCN)C(=O)N[C@@H](CCCCN)C(=O)N[C@@H](CO)C(=O)N[C@H](C(=O)N[C@@H](CCCCN)C(=O)N[C@@H](CCCCN)C(=O)N[C@@H](CCCNC(=N)N)C(=O)N[C@H](C(=O)N[C@@H](CCCCN)C(=O)N[C@@H](CCCCN)C(=O)N[C@@H](CC(C)C)C(=O)N[C@@H](Cc1ccccc1)C(=O)N[C@@H](CCCCN)C(=O)N[C@@H](CCCCN)C(=O)N1CCC[C@H]1C(=O)N[C@@H](CCCNC(=N)N)C(=O)N[C@H](C(=O)N[C@H](C(=O)N1CCC[C@H]1C(=O)N[C@H](C(=O)N[C@@H](CO)C(=O)N[C@H](C(=O)N1CCC[C@H]1C(=O)N[C@@H](Cc1ccccc1)C(=O)O)[C@@H](C)CC)[C@@H](C)CC)[C@@H](C)CC)C(C)C)C(C)C)C(C)C | Escherichia coli | – | ATCC 25922 | 20 h | – | MBC | 8 µg/mL (≈ 1.9 µM) |
| CCCSC(SCCC)c1ccc(OCCNS(=O)(=O)c2ccc(F)c(Cl)c2)c(OC)c1 | Tobacco mosaic virus | protective activity | plant in vivo | – | – | EC50 | 563.7 ± 1.6 µg/mL |
| [O-][N+]1=C(c2ccccc2)C2=NCCN2c2ccccc21 | Prevotella spp. | bacterial growth | – | – | – | MIC90 | ≤ 0.06 µg/mL |
| CCOC(=O)C1(Cc2cccc(C(C)C)c2)Oc2cc(F)ccc2N(Cc2cccc(C(C)C)c2)C1=O (stereo not shown) | Echinochloa crus-galli | fresh weight, greenhouse postemergence | – | postemergence, 150 g ai/ha, 21 days | – | inhibition | 39.7 ± 1.96% |
| FC(F)(F)c1cccc(CNc2nc(NC3CCN(Cc4ccccc4)CC3)c3nc[nH]c3n2)c1 | Cryptococcus neoformans | RNA-seq, measured: CNAG_06530 | – | 48 µg/mL, 3 h | relative to: untreated | mRNA fold change | 1.06 |
| CCOC(=O)C1(Cc2ccc(OC)cc2)Oc2cc(F)ccc2N(Cc2ccc(OC)cc2)C1=O (stereo not shown) | Eclipta prostrata | fresh weight, greenhouse postemergence | – | postemergence, 150 g ai/ha, 21 days | – | inhibition | 59.6 ± 3.23% |
| Cc1cc(N2CCC(C#N)(C3(C)CC3)C2=O)cc(C(=O)NCc2cc(F)cc(-c3cnn(C)c3)c2)n1 (racemic) | Plasmodium falciparum | parasite growth, [3H]hypoxanthine incorporation | Dd2 ELQ-300-resistant, PfcytB mutant | – | – | IC50 | 0.019 µM |

| Compound | organism | assay | test system | setting | how to read | endpoint | result |
| --- | --- | --- | --- | --- | --- | --- | --- |
| COc1ccccc1-c1n[nH]c2nc(N[C@H]3CC[C@H](NS(=O)(=O)CC(C)C)CC3)ncc12 | Leishmania donovani | cell growth | promastigotes, LdBOB CRK3 single knockout | – | – | EC50 | 0.47 ± 0.02 nM |
| Cc1ccc(S(=O)(=O)NCCOc2ccc(C(SC(C)C)SC(C)C)cc2)cc1 | Tobacco mosaic virus | inactivation activity | plant in vivo | – | – | EC50 | 521.9 ± 0.9 µg/mL |
| O=c1n(CCNCCOS(=O)(=O)c2ccccc2)c(=O)n(S(=O)(=O)c2ccccc2)c(=O)n1S(=O)(=O)c1ccccc1 | Bacillus cereus | broth microdilution | – | – | – | MLC | 4 ± 1 µg/mL |
| CCCSC(SCCC)c1ccc(OCCNS(=O)(=O)c2cccc(Br)c2)c(OC)c1 | Tobacco mosaic virus | curative activity | plant in vivo | – | – | EC50 | 322.1 ± 2.6 µg/mL |
| O[C@]12C=C(c3nccc4c3[nH]c3ccccc34)[C@@H]3CCN(CCCC/C=C\CC1)C[C@@]31C[C@@H]3/C=C\CCCCN3[C@H]12 | Mycobacterium intracellulare | microbial growth, resazurin | ATCC23068 | – | – | IC50 | 0.36 µg/mL |
| CC[C@H](C)CCCCC(=O)N[C@@H](CCN)C(=O)N[C@H](C(=O)N[C@@H](CCN)C(=O)N[C@H]1CCNC(=O)[C@H]([C@@H](C)O)NC(=O)[C@H](CCN)NC(=O)[C@H](CCN)NC(=O)[C@H](CC(C)C)NC(=O)[C@@H](CC(C)C)NC(=O)[C@H](CCN)NC1=O)[C@@H](C)O | Escherichia coli | daily serial passaging | ATCC 8739 | highest sub-MIC, 47 days | relative to: initial MIC | MIC fold change | 5.05 |
| CCn1cnc2c(Oc3ccc(/C=C/C(=O)c4ccc(NS(=O)(=O)c5ccccc5C)cc4)cc3)ncnc21 | Tobacco mosaic virus | inactivation activity | plant in vivo | – | – | EC50 | 91.7 ± 1.8 µg/mL |
| Cc1cc(C(=O)Nc2nc3cccc(C)c3n2[C@H]2CCCCN(C(=O)/C=C/CN(C)C)C2)ccn1 | Trypanosoma brucei brucei | – | 2T1 CLK1 overexpressing | 0.0098 µM, compound pretreated | relative to: maximum | survival | 124% and 127% and 140% and 105% |
| CC(C)SC(SC(C)C)c1ccc(OCCNS(=O)(=O)c2ccc(Br)cc2)c(Cl)c1 | Tobacco mosaic virus | curative activity | plant in vivo | – | – | EC50 | 102 ± 2.8 µg/mL |
| COc1ccc(C2=[N+]([O-])c3ccccc3N3CCN=C23)cc1 | Prevotella spp. | bacterial growth | – | – | – | MIC90 | ≤ 0.06 µg/mL |
| CCCCCCCCCCCCCC(=O)N[C@H]1C(=O)N[C@@H](CN)C(=O)N[C@@H](CO)C(=O)N[C@@H](Cc2ccc(O)cc2)C(=O)O[C@H]1C | Staphylococcus aureus | – | SH1000 | together with: N-acetylsphingosine, molar ratio 0.5 | – | MIC | 2 µg/mL |
| CCCSC(SCCC)c1ccc(OCCNS(=O)(=O)c2ccccc2C(F)(F)F)c(OC)c1 | Tobacco mosaic virus | inactivation activity | plant in vivo | – | – | EC50 | 766.7 ± 4.3 µg/mL |
| COC(=O)C1=CO[C@@H](C)[C@@H]2Cn3ccc4c5ccccc5nc-4c3C[C@H]12 | Plasmodium falciparum | growth, [3H]-hypoxanthine uptake | FCR3 | 48 h | – | IC50 | 7.02 ± 3.17 µM |
| C=CCN1C(=O)C(CC=C)(C(=O)OCC)Oc2cc(F)ccc21 (stereo not shown) | Sclerotinia sclerotiorum | microbial growth | – | 200 µg/mL | – | inhibition | > 50% |
| CC[C@H](C)[C@@H]1NC(=O)[C@@H](CCCNC(=N)N)NC(=O)[C@@H](NC(=O)[C@@H](CC(C)C)NC(=O)[C@H](C)NC(=O)[C@H](C)NC(=O)[C@@H]2CCCN2C(=O)[C@@H](CC(C)C)NC(=O)[C@@H](NC(=O)[C@@H](CCCNC(=N)N)NC(=O)[C@@H](CC(C)C)NC(=O)[C@@H](CC(C)C)NC(=O)[C@@H](NC(=O)[C@@H](CCCNC(=N)N)NC(=O)[C@@H](CC(C)C)NC(=O)[C@@H](NC(=O)[C@@H](NC(=O)CNC(=O)[C@@H](CC(C)C)NC(=O)[C@@H](N)Cc2ccccc2)[C@@H](C)O)C(C)C)C(C)C)C(C)C)CSSC[C@@H](C(=O)O)NC(=O)[C@@H](CCCNC(=N)N)NC(=O)[C@@H](CCCNC(=N)N)NC(=O)[C@H](Cc2ccccc2)NC1=O | Streptococcus pyogenes | – | Galleria mellonella larvae | 16 mg/kg, titanium implant biofilm infection | – | survival rate | 75% |
| COc1ccc(C2=[N+]([O-])c3ccccc3N3CCCN=C23)cc1 | Parabacteroides distasonis and Bacteroides spp. | bacterial growth | – | – | – | MIC50 | 1 µg/mL (≈ 3.25 µM) |
| CCCSC(SCCC)c1ccc(OCCNS(=O)(=O)c2ccc(C)cc2)c(OC)c1 | tobacco mosaic virus | curative activity | in vivo plant | – | – | EC50 | > 2500 µg/mL |
| NCCO.O=C(O)C(Cl)Cl | Eleusine indica | – | – | 15 mg/mL, 21 days, pre-emergence, greenhouse | – | herbicidal inhibition | 0% |

A few entries again:
| Compound | organism | assay | test system | setting | how to read | endpoint | result |
| --- | --- | --- | --- | --- | --- | --- | --- |
| C[C@H](NC(=O)Cc1cc(F)cc(F)c1)C(=O)N[C@@H]1C(=O)N(C)c2ccccc2-c2ccccc21 | dengue virus type 2 | viral replication, Renilla luciferase reporter virus | Huh-7.5.1 | 48 h | – | EC50 | 20 nM |
| [O-][N+]1=C(c2ccc(Cl)cc2)C2=NCCCN2c2ccccc21 | Prevotella spp. | bacterial growth | – | – | – | MIC50 | 0.5 µg/mL (≈ 1.6 µM) |
| CC[C@H](C)[C@H](NC(=O)[C@H](C)NC(=O)CNC(=O)[C@H](C)NC(=O)[C@H](CCCCN)NC(=O)[C@H](CO)NC(=O)[C@H](C)NC(=O)[C@H](CCSC)NC(=O)CN)C(=O)N[C@@H](C)C(=O)NCC(=O)N[C@@H](CCCCN)C(=O)N[C@H](C(=O)N[C@@H](C)C(=O)N[C@@H](CCCCN)C(=O)N[C@H](C(=O)N[C@@H](C)C(=O)N[C@@H](CC(C)C)C(=O)N[C@@H](CCCCN)C(=O)N[C@@H](C)C(=O)N[C@@H](CC(C)C)C(N)=O)C(C)C)[C@@H](C)CC | Escherichia coli | – | 0370 wild type | 24 h, 30 °C, at EC90, mean of ratios, together with: nalidixic acid | – | combination index | 1.26 |
| CCOC(=O)C1(Cc2ccccc2)Oc2cc(C)ccc2N(Cc2ccccc2)C1=O (stereo not shown) | Eclipta prostrata | fresh weight, greenhouse postemergence | – | postemergence, 150 g ai/ha, 21 days | – | inhibition | 52.9 ± 2.58% |
| COc1cc(C(SC(C)C)SC(C)C)ccc1OCCNS(=O)(=O)c1cccc(Br)c1 | tobacco mosaic virus | curative activity | in vivo plant | – | – | EC50 | > 2500 µg/mL |
